# Experimental data from different studies.
# Compare with care: the assays were run in different laboratories. Values joined by “and” are separate records of one study, mostly repeats; a detail may differ. ± marks the error that the study gave.
# Oprd1: Delta-type opioid receptor (Oprd1, Rattus norvegicus, UniProt P33533)
# UniProt A5GZW8, sequence (whole entry, looked up): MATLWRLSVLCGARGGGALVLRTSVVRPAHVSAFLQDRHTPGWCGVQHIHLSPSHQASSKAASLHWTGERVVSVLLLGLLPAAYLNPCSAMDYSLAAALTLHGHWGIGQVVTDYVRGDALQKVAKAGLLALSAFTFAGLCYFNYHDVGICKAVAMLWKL
# UniProt D0VWV4, sequence (whole entry, looked up): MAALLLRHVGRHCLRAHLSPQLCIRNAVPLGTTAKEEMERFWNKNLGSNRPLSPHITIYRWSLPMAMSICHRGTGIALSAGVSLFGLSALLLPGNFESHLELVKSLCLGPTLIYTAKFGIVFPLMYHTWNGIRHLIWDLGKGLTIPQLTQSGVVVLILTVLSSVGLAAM
# UniProt Q007T0, sequence (whole entry, looked up): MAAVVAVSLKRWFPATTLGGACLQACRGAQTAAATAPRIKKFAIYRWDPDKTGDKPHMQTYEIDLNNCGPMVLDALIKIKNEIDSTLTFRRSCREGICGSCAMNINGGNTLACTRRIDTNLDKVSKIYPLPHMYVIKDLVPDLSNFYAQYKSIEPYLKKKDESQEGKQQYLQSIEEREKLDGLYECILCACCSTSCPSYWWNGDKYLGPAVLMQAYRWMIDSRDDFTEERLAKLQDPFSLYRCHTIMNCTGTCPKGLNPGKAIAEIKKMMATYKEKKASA
# UniProt P33533, sequence (whole entry, looked up): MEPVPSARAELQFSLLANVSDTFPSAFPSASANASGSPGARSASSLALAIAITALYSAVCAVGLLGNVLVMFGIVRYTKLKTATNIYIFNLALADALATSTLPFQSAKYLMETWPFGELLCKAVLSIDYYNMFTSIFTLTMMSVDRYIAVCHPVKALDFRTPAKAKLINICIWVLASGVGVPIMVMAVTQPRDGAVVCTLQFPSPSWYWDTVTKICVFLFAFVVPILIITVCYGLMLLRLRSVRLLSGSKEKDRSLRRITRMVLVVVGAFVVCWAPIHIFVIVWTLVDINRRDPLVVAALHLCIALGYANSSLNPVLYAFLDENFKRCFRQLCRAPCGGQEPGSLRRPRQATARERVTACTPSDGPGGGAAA
# UniProt Q8BVQ5, sequence (whole entry, looked up): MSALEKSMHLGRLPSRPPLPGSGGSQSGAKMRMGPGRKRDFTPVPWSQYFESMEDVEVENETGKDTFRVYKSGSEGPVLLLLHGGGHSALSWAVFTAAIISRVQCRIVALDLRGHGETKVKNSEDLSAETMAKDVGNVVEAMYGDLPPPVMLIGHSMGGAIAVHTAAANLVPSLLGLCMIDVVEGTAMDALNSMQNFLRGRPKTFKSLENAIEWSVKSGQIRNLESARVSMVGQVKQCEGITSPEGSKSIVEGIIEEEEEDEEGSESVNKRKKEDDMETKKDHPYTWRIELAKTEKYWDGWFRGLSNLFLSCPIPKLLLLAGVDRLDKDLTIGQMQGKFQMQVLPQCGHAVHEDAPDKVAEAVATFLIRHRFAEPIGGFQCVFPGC
# UniProt P32239, sequence (whole entry, looked up): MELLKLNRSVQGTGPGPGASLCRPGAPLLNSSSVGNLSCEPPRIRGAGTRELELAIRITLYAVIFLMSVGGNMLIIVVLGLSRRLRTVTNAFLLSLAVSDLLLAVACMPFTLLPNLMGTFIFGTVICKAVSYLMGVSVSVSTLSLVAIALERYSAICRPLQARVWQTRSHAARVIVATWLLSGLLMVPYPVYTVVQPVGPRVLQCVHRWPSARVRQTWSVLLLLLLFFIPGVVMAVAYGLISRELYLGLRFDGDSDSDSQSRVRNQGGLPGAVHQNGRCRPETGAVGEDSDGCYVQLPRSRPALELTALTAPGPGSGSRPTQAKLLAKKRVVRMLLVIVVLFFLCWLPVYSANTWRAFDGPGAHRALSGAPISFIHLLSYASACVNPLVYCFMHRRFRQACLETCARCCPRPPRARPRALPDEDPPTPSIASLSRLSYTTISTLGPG
# UniProt Q704Y3, sequence (whole entry, unmodified, looked up): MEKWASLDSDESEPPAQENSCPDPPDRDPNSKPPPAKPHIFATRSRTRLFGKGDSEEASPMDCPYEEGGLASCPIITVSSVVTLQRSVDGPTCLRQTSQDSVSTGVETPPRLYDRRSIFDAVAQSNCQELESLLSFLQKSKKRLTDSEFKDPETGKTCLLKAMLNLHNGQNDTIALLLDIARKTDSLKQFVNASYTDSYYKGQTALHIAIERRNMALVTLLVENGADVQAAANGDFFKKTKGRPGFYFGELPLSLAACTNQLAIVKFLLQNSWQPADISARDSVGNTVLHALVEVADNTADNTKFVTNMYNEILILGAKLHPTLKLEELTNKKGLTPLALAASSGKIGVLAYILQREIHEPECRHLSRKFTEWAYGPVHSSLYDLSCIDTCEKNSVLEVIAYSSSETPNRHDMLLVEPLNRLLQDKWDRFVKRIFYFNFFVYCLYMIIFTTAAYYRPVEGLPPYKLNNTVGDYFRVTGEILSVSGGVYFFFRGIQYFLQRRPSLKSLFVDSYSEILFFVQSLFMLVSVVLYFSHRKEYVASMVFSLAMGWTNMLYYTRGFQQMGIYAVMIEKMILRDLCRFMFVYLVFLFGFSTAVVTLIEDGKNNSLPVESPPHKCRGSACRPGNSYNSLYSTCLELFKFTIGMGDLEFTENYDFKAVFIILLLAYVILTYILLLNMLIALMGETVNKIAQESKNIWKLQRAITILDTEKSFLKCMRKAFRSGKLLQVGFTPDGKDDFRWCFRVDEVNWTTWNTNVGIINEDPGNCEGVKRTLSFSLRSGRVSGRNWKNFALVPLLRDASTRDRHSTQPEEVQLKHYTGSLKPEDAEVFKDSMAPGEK
# UniProt Q15831, sequence (whole entry, looked up): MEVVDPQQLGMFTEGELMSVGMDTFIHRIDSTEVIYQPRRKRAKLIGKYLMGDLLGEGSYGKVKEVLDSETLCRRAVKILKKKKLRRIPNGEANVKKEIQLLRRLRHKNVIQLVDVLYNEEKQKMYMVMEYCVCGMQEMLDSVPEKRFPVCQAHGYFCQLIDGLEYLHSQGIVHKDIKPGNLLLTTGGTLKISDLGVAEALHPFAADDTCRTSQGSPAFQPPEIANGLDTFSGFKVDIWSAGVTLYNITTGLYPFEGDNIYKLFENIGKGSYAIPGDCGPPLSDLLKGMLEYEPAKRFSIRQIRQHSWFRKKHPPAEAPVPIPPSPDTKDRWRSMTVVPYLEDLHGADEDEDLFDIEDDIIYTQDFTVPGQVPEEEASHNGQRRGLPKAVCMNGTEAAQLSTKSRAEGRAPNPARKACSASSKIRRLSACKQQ
# UniProt P42338, sequence (whole entry, unmodified, looked up): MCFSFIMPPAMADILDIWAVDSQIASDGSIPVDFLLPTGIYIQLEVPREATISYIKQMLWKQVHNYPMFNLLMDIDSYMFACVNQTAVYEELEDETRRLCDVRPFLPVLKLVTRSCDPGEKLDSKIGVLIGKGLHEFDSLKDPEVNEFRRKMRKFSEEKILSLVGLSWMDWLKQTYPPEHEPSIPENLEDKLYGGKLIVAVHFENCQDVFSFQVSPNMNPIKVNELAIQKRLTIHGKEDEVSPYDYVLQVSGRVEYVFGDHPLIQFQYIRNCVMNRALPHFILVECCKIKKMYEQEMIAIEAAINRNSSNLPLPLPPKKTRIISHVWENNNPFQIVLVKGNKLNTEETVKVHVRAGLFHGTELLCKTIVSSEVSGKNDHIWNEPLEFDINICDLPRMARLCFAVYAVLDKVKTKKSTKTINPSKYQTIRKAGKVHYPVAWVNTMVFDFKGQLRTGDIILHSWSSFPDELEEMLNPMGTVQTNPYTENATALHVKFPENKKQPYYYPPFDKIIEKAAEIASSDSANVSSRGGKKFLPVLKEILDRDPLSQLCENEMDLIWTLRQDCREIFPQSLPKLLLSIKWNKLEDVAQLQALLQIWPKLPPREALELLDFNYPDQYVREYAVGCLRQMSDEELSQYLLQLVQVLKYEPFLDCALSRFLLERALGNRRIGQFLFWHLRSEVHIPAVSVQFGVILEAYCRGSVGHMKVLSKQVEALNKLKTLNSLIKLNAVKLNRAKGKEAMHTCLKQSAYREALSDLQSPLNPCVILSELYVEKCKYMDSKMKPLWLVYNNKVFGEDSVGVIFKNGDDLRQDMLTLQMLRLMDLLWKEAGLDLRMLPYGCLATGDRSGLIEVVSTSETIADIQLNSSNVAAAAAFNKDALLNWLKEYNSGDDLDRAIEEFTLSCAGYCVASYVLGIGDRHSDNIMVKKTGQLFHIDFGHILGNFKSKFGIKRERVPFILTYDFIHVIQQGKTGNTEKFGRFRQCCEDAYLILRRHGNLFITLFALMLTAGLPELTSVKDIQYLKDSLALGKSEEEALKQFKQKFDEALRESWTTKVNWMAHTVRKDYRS
# UniProt P35348, sequence (whole entry, looked up): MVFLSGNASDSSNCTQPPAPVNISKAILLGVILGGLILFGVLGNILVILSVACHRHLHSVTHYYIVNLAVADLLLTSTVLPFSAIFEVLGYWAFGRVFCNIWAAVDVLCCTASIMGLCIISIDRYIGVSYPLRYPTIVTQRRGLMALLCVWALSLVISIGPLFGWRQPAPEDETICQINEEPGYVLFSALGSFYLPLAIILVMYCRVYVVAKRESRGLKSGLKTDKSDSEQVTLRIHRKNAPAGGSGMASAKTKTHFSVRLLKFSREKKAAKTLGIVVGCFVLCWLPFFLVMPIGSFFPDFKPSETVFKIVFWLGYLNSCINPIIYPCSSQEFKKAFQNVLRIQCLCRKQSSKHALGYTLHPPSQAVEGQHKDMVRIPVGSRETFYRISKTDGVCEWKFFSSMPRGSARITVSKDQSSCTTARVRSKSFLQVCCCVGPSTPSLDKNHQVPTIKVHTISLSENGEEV
# UniProt P35914, sequence (whole entry, looked up): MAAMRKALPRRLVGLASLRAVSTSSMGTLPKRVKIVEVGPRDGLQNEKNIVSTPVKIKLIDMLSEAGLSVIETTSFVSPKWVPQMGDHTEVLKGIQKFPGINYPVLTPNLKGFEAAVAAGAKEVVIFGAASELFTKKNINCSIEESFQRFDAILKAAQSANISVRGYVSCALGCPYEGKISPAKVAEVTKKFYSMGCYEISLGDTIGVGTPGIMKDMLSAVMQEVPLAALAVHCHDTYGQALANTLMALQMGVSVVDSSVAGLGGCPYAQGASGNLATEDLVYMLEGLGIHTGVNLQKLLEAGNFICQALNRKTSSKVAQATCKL
Compound,target or system,test,system,setting,how to read,quantity,value
CN(C)CCCSC(=S)N1CCN(C(=O)/C=C/c2coc3ccccc3c2=O)CC1,"Nucleoprotein (N, Tomato spotted wilt virus, UniProt P25999, Y184A)","binding, microscale thermophoresis",,1.953 µM,dose series,MST response,838 a.u.
C=C(c1ccccc1)[C@@H](N)P(=O)(O)O,"PAL1 (Petroselinum crispum, UniProt P24481)","L-Phe deamination, inhibitor, UV steady-state kinetics",,"50 µM, added: L-Phe 5 mM",,reaction rate reduction,4%
OC[C@H]1CNCCN1C[C@@H]1CCCN1C[C@@H](Cc1ccc2ccccc2c1)N1CCN(CCCC2CCCC2)[C@H](Cc2ccc(O)cc2)C1,Oprd1,radioligand binding,rat brain membranes,"500 nM, pH 7.5, 25 °C, added: 2 nM [3H]DPDPE",,remaining binding,92%
CC(=O)N[C@@H](CCC(N)=O)C(=O)N[C@@H](CC1CCCCC1)C(=O)N[C@@H](CNC(=O)CCl)C(=O)N[C@@H](CC(C)C)C(=O)N[C@@H](Cc1ccccc1)C(=O)O,"Beta sliding clamp (Escherichia coli, UniProt P0A988)","binding, isothermal titration calorimetry",,22 °C,,-TΔS,-0.3 kcal/mol
O=C1NC(=O)c2c1c1cc(F)c[n+]3c1c1c2c2cc(O)ccc2[n]1[Ru-4]312([N]=C=S)[S+]3CC[S+]1CC[S+]2CC3 (stereo not shown),"FGFR1 (Homo sapiens, UniProt P11362)",enzyme activity,,"100 nM, human enzyme, added: 10 µM ATP",baseline: untreated,remaining activity,74%
CC(=O)NCC(=O)N[C@@H](CO)C(=O)N[C@@H](CS)C(=O)N[C@@H](CCCNC(=N)N)C(=O)N[C@@H](CCCCN)C(=O)N[C@@H](CCCNC(=N)N)C(=O)N[C@@H](CC(N)=O)C(=O)N[C@@H](CCCNC(=N)N)C(=O)N[C@@H](CO)C(=O)N1CCC[C@H]1C(=O)N[C@@H](CCC(=O)O)C(=O)N[C@@H](CCCNC(=N)N)C(N)=O,"WDR5 (Homo sapiens, UniProt P61964)","binding, competitor of LANA peptide, ITC",,"pH 7.0, 20 °C, WIN motif peptide",,ΔH,-4.97 kcal/mol
CCn1nc(Cl)c2c1-c1cnc(N)c(c1)O[C@H](C)c1cc(F)ccc1-c1nn(C)cc1C2,"MAP4K5 (Homo sapiens, UniProt Q9Y4K4)","kinase activity, inhibitor",,,baseline: IC50 MAP4K5 over IC50 ALK,selectivity ratio,280 fold
CCNC(=S)NN=Cc1c2ccccc2cc2ccccc12.Cc1ccc(C(C)C)cc1.[Cl-].[Cl-].[Ru+2],"Albumin (ALB, Homo sapiens, UniProt P02768)","fluorescence titration, Scatchard",,301 K,,binding constant,11.4 ± 0.19 10⁴ M⁻¹
COc1ccccc1-c1n[nH]c2nc(N[C@H]3CC[C@H](NS(=O)(=O)CC(C)C)CC3)ncc12,,"bead binding, competition bead pull-down, refers to: LINJ.32.1920",Leishmania donovani extract,10 µM,baseline: vehicle,relative abundance,0.43
O=C1NC2(CC2)COc2ncc(F)cc2[C@H]2COCCN2c2ccn3ncc1c3n2,,,"Sprague-Dawley rat, female, serum","oral, 20 mg/kg/day, end of recovery, 4-week subacute toxicity",,serum LDH activity,894 ± 397 U/L
CON(C(=O)c1cn(C)nc1C(F)F)C(C)Cc1c(Cl)cc(Cl)cc1Cl (stereo not shown),"SDHD/SDHC/SDHB (Sus scrofa, UniProt A5GZW8+D0VWV4+Q007T0)","enzyme activity, inhibitor, DCIP reduction",pig,"0.6 µM, added: DCIP 80 µM",,reaction velocity,0.00882 µM/s and 0.00822 µM/s and 0.00851 µM/s
N[C@H](C(=O)N1CCCC1)C1CCN(c2nccc3c(-c4ncc(Cl)cc4Cl)cccc23)CC1,"CCKBR (Homo sapiens, UniProt P32239)","functional response, agonist",,10 µM,,response,1%
CCOC(=O)[C@@H]1Cc2c(cc([N+](=O)[O-])cc2[N+](=O)[O-])[C@H](O)[C@]12C(=O)Nc1ccc(Br)cc12,"STK11 (Homo sapiens, UniProt Q15831)","binding, competition with immobilised ligand",,0.1 µM,,remaining binding,54%
CCCCC[C@@H]1OC(=O)[C@@H](C)N(C)C(=O)[C@H](CCCCC)OC(=O)[C@@H](C)N(C)C(=O)[C@H](CCCCC)OC(=O)[C@@H](C)N(C)C(=O)[C@H](CCCCC)OC(=O)[C@@H](C)N(C)C1=O,"ryanodine receptor 2 (Sus scrofa, UniProt A0A5G2R1W3)","single-channel gating, planar lipid bilayer",,"3 µM, pCa 7, porcine",,open dwell time constant T1,3 ± 1.9 ms
C[C@H](Oc1ccc(C(=O)c2ccc(F)cc2)cc1)C(=O)N1CCc2ccc(C(F)(F)F)cc21,"PFF0160c (Plasmodium falciparum, UniProt Q08210, E182D)","enzyme activity, DCIP colorimetric",,,baseline: E182D mutant over wild type,IC50 ratio,0.5
CC(C)(C)C(=O)OCOP(=O)(OCOC(=O)C(C)(C)C)C1CCCN(O)C1=O (stereo not shown),BT-549,,,,,log GI50,-6.5 log M
C#CCCCCOc1ccc2c(c1)CCCN2C(=O)CCl,"Hydroxymethylglutaryl-CoA lyase, mitochondrial (HMGCL, Homo sapiens, UniProt P35914)","mass spectrometry profiling, refers to: HMGCL",H460 cell lysate,"100 µM over 10 µM, UniProt P35914",baseline: high over low concentration,reactivity ratio,1.57
COc1ccc(NC(=O)c2ccc3[nH]c(-c4ccc(N(C)C)cc4)nc3c2)cn1,"Mapk1 (Rattus norvegicus, UniProt P63086)",proximity ligation,"HeLa, ERK2 and MYD88 transfected",concentration not given,baseline: DMSO,ERK2-MYD88 proximity,0.667 fold per cell and 0.0882 fold per cell and 0.608 fold per cell
CN(C)[C@H]1C[C@@]23CC[C@@]4(O2)C(=CC[C@]2(C)[C@@H](c5ccc6ccncc6c5)CC[C@H]24)C=C3[C@@H](O)[C@@H]1O,"PRPF4B (Homo sapiens, UniProt Q13523)","ATP probe labelling, inhibitor, KiNativ profiling",,0.1 µM,,inhibition,-3.7%
CC(C)[C@H]1NC(=O)C[C@H]2/C=C/CCSSC[C@@H](NC1=O)C(=O)N[C@H](Cc1cccc3ccccc13)C(=O)NCC(=O)O2,"DCLK2 (Homo sapiens, UniProt Q8N568)","enzyme activity, inhibitor",,10 µM,,inhibition,10.5%
CC(C)CC(O)(CC(C)C)c1cn(C(=O)N2CCCC2)nn1,"Protein phosphatase methylesterase 1 (Mus musculus, UniProt Q8BVQ5)","probe labelling, inhibitor, refers to: Ppme1","mouse, brain","i.p., 0.8 mg/kg, 4 h, protein level","baseline: treated over vehicle mice, lower = stronger inhibition",activity ratio-of-ratios,1.27
CC[C@H](C)[C@H](NC(=O)[C@H](CO)NC(=O)[C@H](Cc1ccc(O)cc1)NC(=O)[C@H](Cc1ccc(O)cc1)NC(=O)[C@H](CC(N)=O)NC(=O)CNC(=O)[C@H](CO)NC(=O)[C@H](Cc1ccc(O)cc1)NC(=O)[C@H](CO)NC(=O)[C@H](CO)NC(=O)[C@H](CC(N)=O)NC(=O)COCCOCCNC(=O)CN1CCN(CC(=O)O)CCN(CC(=O)O)CCN(CC(=O)O)CC1)C(=O)N[C@@H](CC(C)C)C(N)=O [copper-64 labelled],,dynamic PET,"KPC mouse Ptf1a-CreER tdTomato, metastases","intravenous, 4.6 MBq/mouse, 5.5 min, 84 d after tamoxifen",,tissue uptake,15.3 %ID/mL
CCCc1cc2cc(-n3nc(C(F)(F)F)c4c3CC(C)(C)CC4=O)cc(N3CCC(O)CC3)c2c(=O)[nH]1,"HSP90AB1 (Homo sapiens, UniProt P08238)",fluorescence polarization,,,baseline: apparent KD Hsp90α over apparent KD HSP90AB1,selectivity ratio,> 100 fold
Cc1cc(Nc2nc(C[C@@]3(C(=O)O)CCN(Cc4cccc(Cl)c4F)[C@H](C)C3)cc(C)c2F)[nH]n1,"CHRM2 (Homo sapiens, UniProt P08172)",agonist,,10 µM,,activation,-0.14%
CC(C)Oc1ccc(B(O)O)c(F)n1,"Trypsin (Sus scrofa, UniProt P00761)",,,,baseline: Ki trypsin over Ki AmpC,selectivity ratio,> 8330
CC[C@H](C)[C@H](NC(=O)[C@H](CCCCN)NC(=O)CNC(=O)[C@H](CC(C)C)NC(=O)[C@H](Cc1ccccc1)NC(=O)[C@H](CCCCN)NC(=O)[C@H](CO)NC(=O)[C@H](Cc1ccccc1)NC(=O)[C@H](Cc1c[nH]c2ccccc12)NC(=O)[C@H](CCC(N)=O)NC(=O)[C@@H](NC(=O)[C@H](Cc1ccccc1)NC(=O)CCCCCNC(=O)CN1CCN(CC(=O)O)CCN(CC(=O)O)CCN(CC(=O)O)CC1)C(C)C)C(=O)N[C@@H](CCC(=O)O)C(=O)N1CCC[C@H]1C(=O)N[C@H](CC(=O)O)C(=O)N[C@H](C(=O)N[C@@H](CO)C(=O)N[C@@H](CCC(N)=O)C(=O)N[C@H](C(=O)N[C@@H](CCC(N)=O)C(=O)N[C@@H](CC(=O)O)C(=O)N1CCC[C@H]1C(=O)N[C@@H](CC(N)=O)C(=O)N[C@@H](CC(=O)O)C(=O)N[C@@H](CCC(N)=O)C(=O)N[C@@H](Cc1ccc(O)cc1)C(=O)N[C@@H](CCC(=O)O)C(=O)N1CCC[C@H]1C(=O)N[C@@H](Cc1ccccc1)C(=O)O)C(C)C)C(C)C [copper-64 labelled],,,"C57BL/6 mice, male, MC-38 tumour-bearing, muscle","2 h, vehicle-treated",,tissue uptake,0.31 ± 0.06 %ID/g
Cc1sc2c(c1C)C(c1ccc(Cl)cc1)=NC(CC(=O)OC(C)(C)C)c1nnc(C)n1-2 (stereo not shown),"AGTR1 (Homo sapiens, UniProt P30556)","ligand displacement, radioligand",,1 µM,,inhibition,0%
CCc1nnc(-c2c(OC)cc(-c3cnc4cc(-c5cnn(C)c5)ccn34)cc2OC)o1,"HTR1A (Homo sapiens, UniProt P08908)","agonist radioligand, radioligand binding",,"10 µM, SafetyScreen44 5-HT1A mean",lower = stronger displacement,remaining binding,99.1%
CCO[C@H]1[C@H](O)[C@@H](N)[C@@H](O[C@H]2[C@H](O[C@@H]3O[C@H](CO)[C@@H](O[C@H]4O[C@@H](CN)[C@@H](O)[C@H](O)[C@H]4N)[C@H]3O)[C@@H](O)[C@H](N)C[C@@H]2N)O[C@@H]1CO,"ADRA1A (Homo sapiens, UniProt P35348)",radioligand binding,,"10 µM, 1% DMSO",,specific binding,-3%
CCCC[C@H]1CNCCN1C[C@@H]1CCCN1C[C@@H](Cc1ccc2ccccc2c1)N1CCN(CCC23CC4CC(CC(C4)C2)C3)[C@H]([C@H](C)CC)C1,Oprd1,radioligand binding,rat brain membranes,"500 nM, pH 7.5, 25 °C, added: 2 nM [3H]DPDPE",,remaining binding,89.7%
CS(C)(=O)=Nc1ccc(-c2ccc(-c3nc4cc(O[C@@H]5CO[C@H]6[C@@H]5OC[C@H]6O)[nH]c4cc3F)cc2)cc1,"ERBB4 (Homo sapiens, UniProt Q15303)","enzyme activity, inhibitor",,10 µM,,inhibition,3%
COc1ccccc1-c1n[nH]c2nc(NC3CCN(C(=O)Cc4ccc(F)cc4F)CC3)ncc12,,"bead binding, competition bead pull-down, refers to: LINJ.35.0070",Leishmania donovani axenic amastigote extract,10 µM,baseline: vehicle,relative abundance,0.77
CCN(N=Cc1cnc2ccc(Br)cn12)S(=O)(=O)c1cc([N+](=O)[O-])ccc1C,"PIK3CB (Homo sapiens, UniProt P42338, Y778I)",,,,baseline: mutant over wild-type p110β,IC50 fold change,2
CCCCC/C=C\C/C=C\C/C=C\C/C=C\CCCC(=O)NCCc1ccc(O)c(O)c1,"Trpv1 (Mus musculus, UniProt Q704Y3, N552Q)","ion current, agonist, whole-cell patch clamp",,N552Q,,Hill coefficient,1.61 ± 0.38

# Repeated from above:
Compound,target or system,test,system,setting,how to read,quantity,value
C=C(c1ccccc1)[C@@H](N)P(=O)(O)O,"PAL1 (Petroselinum crispum, UniProt P24481)","L-Phe deamination, inhibitor, UV steady-state kinetics",,"50 µM, added: L-Phe 5 mM",,reaction rate reduction,4%
COc1ccccc1-c1n[nH]c2nc(NC3CCN(C(=O)Cc4ccc(F)cc4F)CC3)ncc12,,"bead binding, competition bead pull-down, refers to: LINJ.35.0070",Leishmania donovani axenic amastigote extract,10 µM,baseline: vehicle,relative abundance,0.77
